Experimental data pooled from the literature.
Protocols differ between the studies behind these lines.
Target: Glycogen synthase kinase-3 beta (GSK3B, Homo sapiens, UniProt P49841)

C=CC(=O)N1Cc2nc(-c3cc(-c4cc(Cl)cnc4Cl)c(F)cc3F)n(-c3ccncn3)c2C1
inhibition (cell-free assay, inhibitor; 1 µM): -6.8%

O=C(Cc1ccc(OCc2ccccc2)cc1)NC1(C(=O)O)CCN(C(=O)c2ccc(-c3cccc(Cl)c3)cc2)CC1
activity vs control (enzyme activity, inhibitor; 10 µM): 75%

CNS(=O)(=O)Nc1nccc(Cc2c(C)c3ccc(Oc4ncccc4F)cc3oc2=O)c1F
remaining binding (cell-free assay, competition with immobilised ligand; 10 µM): 94%

Cc1cccc(-c2ccc3nc(NC(=O)C4CCOCC4)nn3c2)c1
remaining activity (enzyme activity, Dundee kinase panel; 10 µM): 73%

CNC1C[S+]2CC[S+]3CC[S+](C1)[Ru-4]321([N]=C=S)[n]2c3ccc(OC)cc3c3c4c(c5cc(F)c[n+]1c5c32)C(=O)NC4=O (stereo not shown)
remaining binding (KinomeScan; 0.1 µM; relative to: untreated): 99%

CN1CCN(Cc2ccc(-c3ccc(CO[C@H]4CCC[C@@H]4NC(=O)c4cc(-c5cnn(C)c5)cnc4N)cc3)cc2)CC1
inhibition (enzyme activity, inhibitor; 0.1 µM): 1%

Nc1nc(Nc2ccccc2)sc1C(=O)c1ccccc1
remaining activity (enzyme activity, inhibitor; 10 µM): 0%

COc1c(OCCCN2CCOCC2)ccc2c1N=C(NC(=O)c1cnc(N)nc1)N1CCN=C21
remaining activity (kinase activity, inhibitor; 1 µM; relative to: untreated control): 112%

C=CC(=O)N1CCc2ccc(-n3c(=O)ccc4cnc5ccc(-c6cnn(C)c6)cc5c43)cc21
remaining binding (KINOMEscan; 1 µM; relative to: DMSO control): 100%

COc1ccc(NC(=O)Nc2ccc3c(c2)C(=O)N(C(C)CO)CC(C)C(CN(C)Cc2ccc4c(c2)OCO4)O3)cc1 (stereo not shown)
remaining activity (kinase activity, KinaseProfiler; 0.03 µM, species human; relative to: control): 101%

Nc1ncc(-c2cc(-c3cnn(CC(F)(F)F)c3)ncc2F)nc1C(=O)NC1CNCC(F)C1 (stereo not shown)
remaining activity (enzyme activity; 1 µM; relative to: DMSO control): 73.8%

NC(=O)C[C@H]1CCc2sc3ncnc(O[C@H]4CC[C@H](N5CCOCC5)CC4)c3c21
inhibition (enzyme activity, inhibitor; 10 µM): 4%

COc1ccc(-n2nc(/C=C/c3ccc(O)c(OC)c3)cc2/C=C/c2ccc(O)c(OC)c2)cc1
activity (concentration not given, cell-based): inactive

CCn1cc(C(=O)O)c(=O)c2c(N)c(F)c(NC3CCCCC3)cc21
inhibition (kinase activity; 0.1 µM, added: ATP at Km): 86%

Nc1ncc2c(n1)-c1c([nH]c3ccc(C4=CCOCC4)cc13)CCC2
remaining binding (binding, competition with immobilised ligand; 1 µM): 100%

Cc1cccc(-c2ccc3nc(NC(=O)C4CCCCC4)nn3c2)c1
remaining activity (enzyme activity, Dundee kinase panel; 10 µM): 71%

CS(=O)(=O)Nc1cccc(-c2csc3cnc(Nc4ccc(N5CCN(CCCCCOc6cccc7c6C(=O)N(C6CCC(=O)NC6=O)C7=O)CC5)cc4)nc23)c1 (stereo not shown)
inhibition (probe labelling, inhibitor, KiNativ chemoproteomics; MOLT-4; 1 µM): -22.8%

C=CC(=O)Nc1cccc(-c2cnc3[nH]cc(C(=O)NC(C)(C)C)c3n2)c1
inhibition (enzyme activity, inhibitor; 0.1 µM): 61%

COc1c(Cl)cccc1Nc1c(-c2ccncc2C#C[C@@]2(C)CCCN2C(=O)/C=C/CN(C)C)[nH]c2c1C(=O)NCC2
remaining binding (cell-free assay, competition with immobilised ligand; 3 µM): 88%

C[C@H]1CN(C(=O)c2cn(-c3ccnc(N)n3)c3cc(C#CC4(O)CCCCC4)ccc23)CCN1
inhibition (enzyme activity, inhibitor, FRET; 1 µM): 3%

Cc1cccc(O[C@H]2CCC[C@@H](C(C)CNCc3ccncc3)C2)c1 (relative stereo)
inhibition (enzyme activity, inhibitor; 10 µM): -11%

C=CC(=O)N1CCCC(n2c(=O)c3ncccc3n(Cc3ccc(Oc4ccccc4)cc3)c2=O)C1 (stereo not shown)
remaining binding (cell-free assay, competition with immobilised ligand; 1 µM): 73%

CN1CCN(Cc2ccc(NC(=O)c3cccc(C#Cc4cnc(N)c5ncccc45)c3)cc2C(F)(F)F)CC1
remaining binding (cell-free assay, competition with immobilised ligand; 50 nM): 69%

COc1cc(Nc2nc(C)cc(-c3cnn4nc(OC)ccc34)n2)cc(C(F)(F)F)c1
remaining activity (inhibitor; 1 µM; relative to: control): 100%

CCN1CCN(Cc2ccc(C(=O)Nc3ccc(C)c(NCc4cnc5[nH]ccc5c4OC)c3)cc2C(F)(F)F)CC1
remaining binding (binding, competition with immobilised ligand; 1 µM): 78%

Excerpt of the above:
CS(=O)(=O)Nc1cccc(-c2csc3cnc(Nc4ccc(N5CCN(CCCCCOc6cccc7c6C(=O)N(C6CCC(=O)NC6=O)C7=O)CC5)cc4)nc23)c1 (stereo not shown)
inhibition (probe labelling, inhibitor, KiNativ chemoproteomics; MOLT-4; 1 µM): -22.8%

Nc1ncc2c(n1)-c1c([nH]c3ccc(C4=CCOCC4)cc13)CCC2
remaining binding (binding, competition with immobilised ligand; 1 µM): 100%
